Values quoted from earlier work, collected from citations in different studies.
Protocols differ between the studies behind these lines.
Sequence of UniProt P42336 (whole entry, unmodified, looked up): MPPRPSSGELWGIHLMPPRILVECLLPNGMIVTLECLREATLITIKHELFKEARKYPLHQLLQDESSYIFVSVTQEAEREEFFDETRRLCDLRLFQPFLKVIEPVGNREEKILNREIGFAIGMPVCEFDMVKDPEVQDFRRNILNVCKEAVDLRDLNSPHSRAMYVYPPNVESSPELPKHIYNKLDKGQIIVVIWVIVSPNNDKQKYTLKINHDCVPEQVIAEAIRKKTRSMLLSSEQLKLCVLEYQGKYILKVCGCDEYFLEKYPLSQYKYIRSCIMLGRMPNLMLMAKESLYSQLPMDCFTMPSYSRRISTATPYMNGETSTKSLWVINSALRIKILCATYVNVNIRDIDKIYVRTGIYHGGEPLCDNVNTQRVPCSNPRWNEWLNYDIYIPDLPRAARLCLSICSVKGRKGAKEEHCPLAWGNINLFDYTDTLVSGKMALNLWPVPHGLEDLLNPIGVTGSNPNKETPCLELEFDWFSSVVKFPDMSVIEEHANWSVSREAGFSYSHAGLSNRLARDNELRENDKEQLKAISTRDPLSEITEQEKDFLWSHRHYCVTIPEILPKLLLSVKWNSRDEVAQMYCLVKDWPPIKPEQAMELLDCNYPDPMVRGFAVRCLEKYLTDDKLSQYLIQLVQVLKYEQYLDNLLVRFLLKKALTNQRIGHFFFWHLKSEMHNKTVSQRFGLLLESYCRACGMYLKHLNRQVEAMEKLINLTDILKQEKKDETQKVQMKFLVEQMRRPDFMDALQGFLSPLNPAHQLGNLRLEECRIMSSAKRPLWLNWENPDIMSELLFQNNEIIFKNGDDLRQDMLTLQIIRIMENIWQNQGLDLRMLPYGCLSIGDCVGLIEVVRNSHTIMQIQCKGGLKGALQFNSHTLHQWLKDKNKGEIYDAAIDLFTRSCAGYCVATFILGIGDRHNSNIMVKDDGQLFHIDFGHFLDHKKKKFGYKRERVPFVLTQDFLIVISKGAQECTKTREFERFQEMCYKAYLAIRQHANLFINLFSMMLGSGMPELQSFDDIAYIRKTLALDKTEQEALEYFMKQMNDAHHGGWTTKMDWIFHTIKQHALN

For `C=C[C@@H]1C[C@]1(NC(=O)[C@@H]1C[C@@H]2CN1C(=O)[C@H](C(C)(C)C)NC(=O)O[C@@H]1C[C@H]1CCCCCc1nc3ccc(OC)cc3nc1O2)C(=O)NS(=O)(=O)C1CC1`, the efflux ratio was about 100 (human P-glycoprotein; LLC-PK1 transfected with human P-glycoprotein; 1 µM; baseline: B-A over A-B permeability).
For `CCN(CC)N=O`, mutation frequency read “increased” (fingerprint mutation, measured: T>G substitution; mouse, liver; concentration not given).
For `CCCCCOc1ccc(-c2ccc(-c3ccc(C(=O)N[C@H]4C[C@@H](O)[C@@H](O)NC(=O)[C@@H]5[C@@H](O)[C@@H](C)CN5C(=O)[C@H]([C@@H](C)O)NC(=O)[C@H]([C@H](O)[C@@H](O)c5ccc(O)cc5)NC(=O)[C@@H]5C[C@@H](O)CN5C(=O)[C@H]([C@@H](C)O)NC4=O)cc3)cc2)cc1`, the mean clearance was 1.2 L/h (typical invasive aspergillosis patient; 200/100 mg, male 70 kg).
The Ki of `CN/C(=N/CCSCc1nc[nH]c1C)NC#N` is reported as 124 µM (OCT2).
With `Cc1ccncc1NC(=O)[C@H](C)OC(F)F` the inhibition was 18.9% (main protease (Mpro); 20 µM).
`CCCCCc1cc(O)c(C/C=C(\C)CCC=C(C)C)c(O)c1`: inhibition “inhibited” (CYP2C19, human; enzyme activity, inhibitor; human liver microsomes; 10 µM).
With `Cc1nnc2n1-c1ccc(Cl)cc1C(c1ccccc1)=NC2` the AUC(0-t) ratio was 2.48 (human; with: ritonavir; baseline: with over without ritonavir).
For `O=C(O)C(F)(F)C(F)(F)C(F)(F)C(F)(F)C(F)(F)C(F)(F)C(F)(F)F`, “passive diffusion clearance” read 18.1 µL/min/mg protein (Caco-2 cells).
Under “measured soil concentration”, `CN1COCN(Cc2cnc(Cl)s2)/C1=N\[N+](=O)[O-]` is recorded as 0.27 mg/kg dry soil (test soil; 0.37 mg/kg nominal, 28 days).
The protective index of `NC(=O)O[C@@H](Cn1ncnn1)c1ccccc1Cl` is reported as 2 (mouse; i.p., subcutaneous PTZ seizure test).
`Nc1ncc(-c2nc(N3CCOCC3)nc(N3CCOCC3)n2)c(C(F)F)n1` has a remaining binding of 0.05% (PIK3CA (Homo sapiens, UniProt P42336, I800L); KinomeScan competition binding; 10 µM).
Under inhibition, `C=C(C)[C@@H]1CCC(C)=C[C@H]1c1c(O)cc(CCCCC)cc1O` is recorded as “inhibited” (CYP2D6 human; human liver microsomes; 10 µM).
For `COCCN(CCOC)N=O`, Ames mutagenicity read “positive” (Salmonella typhimurium; TA100; with: rat liver S9).
`CCCCCc1cc(O)c2c(c1)OC(C)(C)c1ccc(C)cc1-2`: inhibition “inhibited” (CYP2B6, human; enzyme activity, inhibitor; human liver microsomes; 10 µM).
With `O=C1N[C@@H]2CCCC[C@H]2N[C@H]1c1c[nH]c2ncccc12` the IC50 was over 100 µM (COLO 320 ABCB1-resistant colon; cytotoxicity).

Some of these lines once more:
For `O=C(O)C(F)(F)C(F)(F)C(F)(F)C(F)(F)C(F)(F)C(F)(F)C(F)(F)F`, “passive diffusion clearance” read 18.1 µL/min/mg protein (Caco-2 cells).
